{"data": "Published values gathered from unrelated publications", "cofactor-independent phosphoglycerate mutase W431C": "cofactor-independent phosphoglycerate mutase (Metamycoplasma orale, UniProt A0A448ZXM1, W431C)", "note": "Each line is one published result; not all experiments were run side by side. ± gives the spread as reported.", "chain of UniProt P21729 (whole entry, looked up)": "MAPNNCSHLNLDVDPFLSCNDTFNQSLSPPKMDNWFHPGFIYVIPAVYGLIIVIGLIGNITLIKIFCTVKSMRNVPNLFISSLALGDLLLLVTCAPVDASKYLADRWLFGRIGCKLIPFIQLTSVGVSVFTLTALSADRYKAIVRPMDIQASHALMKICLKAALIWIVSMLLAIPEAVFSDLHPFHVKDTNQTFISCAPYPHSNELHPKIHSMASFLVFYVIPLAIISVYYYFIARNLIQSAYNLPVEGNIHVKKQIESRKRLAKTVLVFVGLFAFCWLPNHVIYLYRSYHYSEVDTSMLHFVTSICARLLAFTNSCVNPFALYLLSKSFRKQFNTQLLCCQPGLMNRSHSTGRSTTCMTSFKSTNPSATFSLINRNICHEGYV"}
{"SMILES": "CC(=O)N1CCCC[C@H]1C(=O)NC(C)(C)C(=O)N1CCCC[C@H]1C(=O)NC(C)(C)C(=O)NC(C)(C)C(=O)N[C@@H](CC(C)C)C(=O)NC[C@H](C)C(=O)NCC(=O)NC(C)(C)C(=O)NC(C)(C)C(=O)N1CCCC[C@H]1C(=O)NC(C)(C)C(=O)NCC(=O)N[C@@H](CC(C)C)C(=O)NC(C)(C)C(=O)N[C@@H](CC(C)C)C[N+]1=C2CCCN2CCC1", "tested on": "39 cancer cell lines", "setting": "48 h, mean over panel", "measurement": "GI50", "result": "0.219 µM"}
{"SMILES": "CCC[P+](c1ccccc1)(c1ccccc1)c1ccccc1", "tested on": "HCT-116", "assay": "cell growth or viability", "setting": "72 h", "measurement": "GI50", "result": "9.53 µM"}
{"SMILES": "Cc1cccc(O)c1C(=O)OCC1(O)C(Nc2ccc3c(c2)Cc2ccccc2-3)C(N)C(NC(=O)N(C)C)(C(C)O)C1(C)O (centres unmarked)", "tested on": "M14", "assay": "cell growth or viability, SRB", "measurement": "GI50", "result": "0.88 µM"}
{"SMILES": "CC1CN1c1cc(O)c2nc(N)sc2c1 (centres unmarked)", "tested on": "MOLM-13", "assay": "cell growth or viability, MTT", "setting": "7 days", "measurement": "GI50", "result": "> 6 µM"}
{"SMILES": "COc1cc(/C=C(\\C#N)C(=O)Nc2nnc(C(F)(F)F)s2)ccc1OC(=O)N1CCN(C(=O)CCCC(=O)NCCCC[C@@H]2NC(=O)[C@@H](Cc3ccc(O)cc3)NC(=O)[C@H](CC(=O)O)NC(=O)CNC(=O)[C@H](CCCNC(=N)N)NC2=O)CC1", "tested on": "HCC827", "assay": "cell growth or viability, MTT", "measurement": "GI50", "result": "76 µM"}
{"SMILES": "CC(=O)N1CCCC[C@H]1C(=O)NC(C)(C)C(=O)N1CCCC[C@H]1C(=O)NC(C)(C)C(=O)NC(C)(C)C(=O)N[C@@H](CC(C)C)C(=O)NCCC(=O)NCC(=O)NC(C)(C)C(=O)NC(C)(C)C(=O)N1CCCC[C@H]1C(=O)NC(C)(C)C(=O)NCC(=O)N[C@@H](CC(C)C)C(=O)NC(C)(C)C(=O)N[C@@H](CC(C)C)C[N+]1=C2CCCN2CCC1", "tested on": "39 cancer cell lines", "setting": "48 h, mean over panel", "measurement": "GI50", "result": "0.646 µM"}
{"SMILES": "CN[C@](C)(C[18F])C(=O)O", "tested on": "A549 tumour model", "system": "host not given, lung", "setting": "15 min, tumour-bearing", "measurement": "tracer uptake", "result": "3.3 %ID/g"}
{"SMILES": "CN1C(=O)C2(Cc3ccc(CC45SSC(CO)(C(=O)N4C)N(C)C5=O)cc3)SSC1(CO)C(=O)N2C (racemic)", "tested on": "MCF7", "assay": "cell growth or viability, resazurin", "measurement": "GI50", "result": "0.52 µM"}
{"SMILES": "COC(C(=O)C(C)=O)C1Cc2cc3cc(OC4CC(OC5CC(O)C(O)C(C)O5)C(O)C(C)O4)c(C)c(O)c3c(O)c2C(=O)C1OC1CC(OC2CC(O)C(O)C(C)O2)C(O)C(C)O1 (centres unmarked)", "tested on": "NCI/ADR-RES", "assay": "cell growth or viability", "measurement": "GI50", "result": "> 10 µM"}
{"SMILES": "CCCC[C@H]1C(=O)N2CCC[C@H]2C(=O)N[C@H](C(N)=O)CSCC(=O)N[C@@H](Cc2ccc(O)cc2)C(=O)N(C)[C@@H](Cc2ccc(OC)cc2)C(=O)N[C@@H](CCCNC(=N)N)C(=O)N(C)[C@@H](Cc2ccccc2)C(=O)N[C@@H](CC(=O)O)C(=O)N(C)[C@@H](CO)C(=O)N(C)[C@@H](Cc2ccc(O)cc2)C(=O)N[C@@H](CCC(N)=O)C(=O)N[C@@H](CO)C(=O)N(C)[C@@H](CO)C(=O)N(C)[C@@H](Cc2ccc(OC)cc2)C(=O)N[C@@H](C(C)C)C(=O)N(C)[C@@H](Cc2ccc(O)cc2)C(=O)N1C", "tested on": "cofactor-independent phosphoglycerate mutase W431C", "assay": "biochemical", "system": "Mycoplasma orale", "measurement": "AC50", "result": "1.86 µM"}
{"SMILES": "CCCNC(=O)[C@H](CC(C)C)NC(=O)[C@H](Cc1c[nH]cn1)NC(=O)CNC(=O)[C@@H](NC(=O)[C@H](C)NC(=O)[C@H](Cc1c[nH]c2ccccc12)NC(=O)[C@H](CCC(N)=O)NC(=O)[C@@H](Cc1ccccc1)NC(=O)CCCCCNC(=O)CN1CCN(CC(=O)O)CCN(CC(=O)O)CCN(CC(=O)O)CC1)C(C)C [indium-111 labelled]", "tested on": "Gastrin-releasing peptide receptor (Mus musculus, UniProt P21729)", "assay": "biodistribution", "system": "CF-1 mice, muscle", "setting": "intravenous, 1 h, with: bombesin 100 µg, blocking", "measurement": "tissue uptake", "result": "0.06 ± 0.01 %ID/g"}
{"SMILES": "CC(=O)N1CCCC[C@H]1C(=O)NC(C)(C)C(=O)N1CCCC[C@H]1C(=O)NC(C)(C)C(=O)NC(C)(C)C(=O)N[C@@H](CC(C)C)C(=O)N[C@@H](C)CC(=O)NCC(=O)NC(C)(C)C(=O)NC(C)(C)C(=O)N1CCCC[C@H]1C(=O)NC(C)(C)C(=O)NCC(=O)N[C@@H](CC(C)C)C(=O)NC(C)(C)C(=O)N[C@@H](CC(C)C)C[N+]1=C2CCCN2CCC1", "tested on": "39 cancer cell lines", "setting": "48 h, mean over panel", "measurement": "GI50", "result": "0.155 µM"}
{"SMILES": "CN1C(=O)[C@H](CCC(=O)O)NC(=O)[C@H](Cc2ccc(O)cc2)NC(=O)[C@H](CCCNC(=N)N)NC(=O)[C@@H](Cc2ccc(O)cc2)NC(=O)CSC[C@@H](C(N)=O)NC(=O)[C@H](CCCCN)NC(=O)[C@@H]2CCCN2C(=O)[C@H](CS)NC(=O)[C@H](CCC(=O)O)NC(=O)[C@H](Cc2ccc(O)cc2)N(C)C(=O)[C@H](CCCCN)NC(=O)[C@H](Cc2ccc(O)cc2)NC(=O)[C@@H]1Cc1ccc(O)cc1", "tested on": "cofactor-independent phosphoglycerate mutase W431C", "assay": "biochemical", "system": "Mycoplasma orale", "measurement": "AC50", "result": "1.07 µM"}
{"SMILES": "CCCc1cc(OC)c2c(c1)OCO2", "tested on": "HCT-116", "assay": "cell growth or viability, MTT", "setting": "72 h", "measurement": "GI50", "result": "113 µM"}
